Measured values from different studies.
Protocols differ between the studies behind these lines. ± gives the spread as reported.

SMILES | assay | system | setting | scale | measurement | result
CC(C)C[C@H](NC(=O)[C@H](CCCCN)NC(=O)[C@H](CC(C)C)NC(=O)[C@H](CC(C)C)NC(=O)[C@H](CCCCN)NC(=O)[C@H](CCCCN)NC(=O)[C@H](CC(C)C)NC(=O)[C@H](CC(C)C)NC(=O)[C@H](CCCCN)NC(=O)[C@H](CC(C)C)NC(=O)[C@H](CC(C)C)NC(=O)[C@H](CCCCN)NC(=O)[C@H](CCCCN)NC(=O)[C@@H](N)CC(C)C)C(N)=O | chemical stability, HPLC | mouse, serum | 8 h | – | compound remaining | ~38.5%
[2H]C([2H])([2H])C([2H])([2H])C([2H])([2H])OC(C(=O)OC1CCNCC1)(c1ccccc1)c1ccccc1 | – | healthy Japanese male subjects, plasma | oral, 10 mg, day 1, mean | – | tmax | 258 min
CC[C@H](C)[C@H](NC(=O)[C@H](CC(=O)O)NC(=O)[C@H](CO)NC(=O)[C@H](CCC(N)=O)NC(=O)[C@H](C)NC(=O)[C@H](CC(=O)O)NC(=O)[C@H](CCC(=O)O)NC(=O)[C@H](Cc1c[nH]cn1)NC(=O)[C@H](Cc1ccc(O)cc1)NC(=O)[C@H](C)NC(=O)[C@H](CC(=O)O)NC(=O)[C@H](CCC(=O)O)NC(=O)[C@H](Cc1c[nH]cn1)NC(=O)[C@H](Cc1ccc(O)cc1)NC(=O)[C@H](C)NC(=O)[C@H](CC(=O)O)NC(=O)[C@H](CCC(=O)O)NC(=O)[C@H](Cc1c[nH]cn1)NC(=O)[C@H](Cc1ccc(O)cc1)NC(=O)[C@H](C)NC(=O)[C@H](CC(=O)O)NC(=O)[C@H](CCC(=O)O)NC(=O)[C@H](Cc1c[nH]cn1)NC(=O)[C@H](Cc1ccc(O)cc1)NC(=O)[C@H](C)NC(=O)[C@H](CC(=O)O)NC(=O)[C@H](CCC(=O)O)NC(=O)[C@H](Cc1c[nH]cn1)NC(=O)[C@@H](N)Cc1ccc(O)cc1)C(=O)N[C@H](C(=O)N[C@@H](C)C(=O)N[C@@H](Cc1c[nH]cn1)C(=O)N[C@@H](CC(C)C)C(=O)N[C@@H](CC(C)C)C(=O)O)C(C)C | – | normal mouse | dose not given | – | MPV | 6.7 ± 1 fL
CC(C)[C@H](NC(=O)CNC(=O)[C@H](CCC(N)=O)NC(=O)[C@H](C)N)C(=O)O | – | human | intravenous infusion, 45 mg/kg/h, 2 h, relatedness Possibly | baseline: subjects | drug-related adverse events | 0%
O=c1cc(-c2ccccc2)oc2c(Br)c(O)c(O)c(O)c12 | – | C57BL/6 mouse, plasma | intravenous, 10 mg/kg | – | Ctrough | 186 ± 176 ng/mL
CC[C@@H]1C[C@]1(NC(=O)[C@@H]1C[C@@]2(CN1C(=O)[C@@H](NC(=O)[C@@H](NC(=O)[C@@H]1CCCCN1C(C)C)C1CCCCC1)C(C)(C)C)C(C)(C)C21CCC1)C(=O)NS(=O)(=O)N1CCCC1 | item: Diarrhea | human | oral, 50 mg, simultaneous dosing on day 2, together with: ritonavir 100 mg | – | subjects with adverse event | 0%
CNC(=O)C1CCN(c2ccccc2NC(=O)c2ccc(-c3cc(O)ccc3C)c(C)n2)CC1 | metabolic stability | human, liver microsomes | 2 µM | – | half-life | 29 min
COc1ccc2sc3c(c2c1)SCCNC3=O | – | mouse | intravenous, 25 mg/kg | – | Vd | ~1.94 L/kg
C[C@@H]1CC[C@H]2[C@@H](C)CO[C@@H]3O[C@@]4(C)CC[C@@H]1[C@]32OO4 | item: compound | rat, plasma | 800 ng/mL spiked, three freeze/thaw cycles | – | stability accuracy | 96.9%
N=C(N)NCc1ccc(C(=O)NCCCC[C@H](NC(=O)N[C@@H](CCC(=O)O)C(=O)O)C(=O)O)cc1[211At] | – | SCID mouse, PC-3 xenografts, thyroid | 1 h | – | tissue uptake | 0.79 ± 0.17 %ID/g
COc1ccc(-c2oc3ccc(-c4cc(OC)c(OC)c(OC)c4)cc3c2C#CC2(O)CCCCC2)cc1 | metabolic stability | mouse, liver microsomes | – | – | half-life | > 30 min
C/C=C/C=C/C/C=C/CCCCCCCc1cccc(O)c1O | – | female Kunming mice, tumour-bearing, liver | intravenous, 10 mg/kg, 0.083 h | – | tissue concentration | 47200 ± 3690 ng/g
CC[C@H](C)[C@@H]1NC(=O)[C@H](CCCCN)NC(=O)[C@H](CCCCN)NC(=O)[C@H](Cc2ccc(O)cc2)NC(=O)[C@H](CC(C)C)NC(=O)[C@@H]2CCCN2C(=O)[C@H](C)NC(=O)CNC(=O)CNC(=O)[C@H](CO)NC(=O)CNC(=O)CNC(=O)[C@H](CO)NC(=O)[C@H](CCC(=O)O)NC(=O)[C@H](CC(C)C)NC(=O)[C@H](CC(C)C)NC(=O)[C@H](CCCCN)NC(=O)[C@H](CCCCN)NC(=O)[C@H]([C@@H](C)CC)NC(=O)[C@H]([C@@H](C)CC)NC(=O)[C@H](CCCCN)NC(=O)[C@H](CCCCN)NC(=O)[C@H](Cc2ccc(O)cc2)NC(=O)[C@H](CC(C)C)NC(=O)[C@@H]2CCCN2C(=O)[C@H](C)NC(=O)CNC(=O)[C@@H]2CSSC[C@H](NC(=O)[C@H](CC(C)C)NC(=O)[C@H](CCCCN)NC(=O)[C@H](CCCCN)NC(=O)[C@H]([C@@H](C)CC)NC1=O)C(=O)N[C@@H](CCC(N)=O)C(=O)N[C@@H](CC(N)=O)C(=O)NCC(=O)N2 | hemolysis | uninfected human erythrocytes | 1 h | – | HC10 | > 128 µM
CC(CCC(=O)NCC(=O)O)C1CCC2C3C(O)CC4CC(OC5OC(C(=O)O)C(O)C(O)C5O)CCC4(C)C3CCC12C (stereo not shown) | – | human, SLCO1B1 *14/*15, plasma | geometric mean, sex-adjusted | – | plasma concentration | 25.6 ng/mL
CCN(Cc1ccccc1)C(=O)CCc1nc(CN2CCN(C(=O)Cc3ccc(OC)c(OC)c3)CC2)no1 | – | rat, liver | intravenous, 1 mg/kg, 5 min, single dose | – | concentration | 53 ng/g
O=C(c1ccc(F)cc1)C1CCN(C2Cc3c(cccc3OCC[18F])CC2O)CC1 (single isomer, unassigned; (-)) | – | Sprague-Dawley rat, striatum | 5 to 120 min | – | tissue uptake | ~0.8 %ID/g

SMILES | assay | system | setting | scale | measurement | result
CN(C)C(CNC(=O)Nc1cc(C(F)(F)F)ccc1N1CCOCC1)c1ccncc1 (stereo not shown) | – | mouse, serum | intraperitoneal, 360 mg/kg single dose | – | serum sodium | 144 mmol/L
CC(C)[C@H](NC(=O)CNC(=O)[C@H](CCC(N)=O)NC(=O)[C@H](C)N)C(=O)O | – | healthy male volunteers | intravenous, 45 mg/kg/h, 2 h, together with: LPS 2 ng/kg | – | subjects with severe AE | 0%
O=C(O)CC[C@H](NC(=O)O[C@@H](CCCCNC(=O)c1ccc([18F])cc1)C(=O)O)C(=O)O | – | mouse, PC-3 PIP/flu xenografts, kidney | 30 min | – | tissue uptake | 14.2 ± 8.47 %ID/g
CSCC[C@H](NC(=O)CNC(=O)[C@H](CC(=O)O)NC(=O)[C@@H](NC(=O)[C@@H](NC(=O)[C@@H](NC(=O)CNC(=O)[C@H](CCC(N)=O)NC(=O)[C@H](CCSC)NC(=O)[C@H](CC(=O)O)NC(=O)[C@H](C)NC(=O)[C@H](C)NC(=O)[C@@H](NC(=O)[C@H](CO)NC(=O)[C@@H](N)CC(C)C)[C@@H](C)O)C(C)C)C(C)C)[C@@H](C)O)C(=O)N[C@@H](C)C(=O)N[C@@H](CO)C(=O)NCC(=O)N[C@@H](CC(C)C)C(=O)N[C@@H](CC(=O)O)C(=O)N[C@@H](CCCCN)C(=O)N[C@@H](CC(=O)O)C(=O)N[C@@H](Cc1ccc(O)cc1)C(=O)N[C@@H](CC(C)C)C(=O)N[C@@H](CCCCN)C(=O)N1CCC[C@H]1C(=O)N[C@@H](CC(=O)O)C(=O)N[C@@H](CC(=O)O)C(=O)O | – | human, serum | intravenous, 2.5 mg/kg, patients, infusion | – | Tmax | 4.8 min
CC1(C)C(=CC=CC=CC2=[N+](CCCCN=[N+]=[N-])c3ccc(S(=O)(=O)[O-])cc3C2(C)C)N(CCCCCC(=O)O)c2ccccc21 | – | DMSO | – | – | molar absorption coefficient | 218000 M⁻¹ cm⁻¹
O=c1c2cc(Cl)ccc2sc2c(NCc3ccccc3)nc3ccccc3c12 | – | BALB/c nude mice | i.p., 5 mg/kg | – | body weight | 22 ± 0.24 g
Cc1ccc(OCC(=O)N(Cc2cccs2)c2ccn[nH]2)cc1 | – | CD-1 mouse, both sexes, bone marrow polychromatic erythrocytes | oral, 500, 1000, 2000 mg/kg | – | micronucleus formation | negative
CC[C@H](C)[C@@H]1NC(=O)[C@H](CCCNC(=N)N)NC(=O)[C@H](CC(=O)O)NC(=O)[C@H](CC(C)C)NC(=O)[C@H](CCCCN)NC(=O)[C@H](CC(C)C)NC(=O)CNC(=O)[C@H](Cc2ccccc2)NC(=O)[C@@H](NC(=O)CNC(=O)[C@H](CCCCN)NC(=O)[C@H](CO)NC(=O)[C@H](CC(C)C)NC(=O)CNC(=O)[C@H](CCCCN)NC(=O)[C@H](CCCCN)NC(=O)[C@H](CCC(N)=O)NC(=O)[C@H](C)NC(=O)CNC(=O)[C@H](CCCCN)NC(=O)[C@H](Cc2ccc(O)cc2)NC(=O)[C@H](CCCCN)NC(=O)[C@H](CCCNC(=N)N)NC(=O)[C@H](C)NC(=O)[C@H](CCC(N)=O)NC(=O)[C@@H]2CCCN2C(=O)[C@H](Cc2c[nH]cn2)NC(=O)[C@H](CCC(=O)O)NC(=O)[C@H](CCC(N)=O)NC(=O)[C@@H](N)CC(C)C)CSSC[C@@H](C(=O)O)NC(=O)CNC(=O)[C@H](CC(C)C)NC(=O)CNC(=O)[C@H](CO)NC(=O)[C@H](CCSC)NC(=O)[C@H](CO)NC(=O)CNC1=O | – | FVB/nJ male mice, 3 weeks old | dose not given | baseline: untreated | body weight | no effect
COC(=O)C[C@](O)(CCCC(C)(C)OC(C)=O)C(=O)O[C@@H]1C(OC)=C[C@]23CCCN2CCc2cc4c(cc2[C@H]13)OCO4 | – | CD1 mouse, liver | subcutaneous, 1 mg/kg, 24 h, below quantification limit 1.00 ng/mL | – | tissue concentration | not detected
Cc1ccc(/C=C/C(=O)O)cc1-c1cc2c(cc1C)C(C)(C)CCC2(C)C | – | Sprague-Dawley rat, male, plasma | oral, 100 mg/kg, 2 h, sesame oil vehicle | – | LDL level | 15 ± 8 mg/dL
CC1=CC=c2ccc3c4c2[N]1[Re](=[C]=O)(=[C]=O)(=[C]=O)([C]#[N+]c1cc(C)cc(C)c1)[N]4C(C)=CC=3.O=S(=O)([O-])C(F)(F)F | cyclic voltammetry | acetonitrile | irreversible reduction | – | cathodic peak potential | -1.27 V vs SCE
CN[C@](C)(C[18F])C(=O)O | – | mouse, muscle | 2 h, tumour-bearing | – | tracer uptake | 1.1 %ID/g
CSCC[C@@H]1NC(=O)[C@@H]2CSSC[C@H](NC(=O)[C@H](CO)NC(=O)[C@H](C)N)C(=O)N[C@@H](CCCNC(=N)N)C(=O)N[C@@H]([C@@H](C)O)C(=O)N3CCC[C@H]3C(=O)N[C@@H](CCCCN)C(=O)N[C@@H](CC(=O)O)C(=O)N[C@H]3CSSC[C@H](NC(=O)[C@H](CCCCN)NC(=O)[C@H](CCCNC(=N)N)NC(=O)[C@H](CC(N)=O)NC1=O)C(=O)N[C@@H](CCCCN)C(=O)N[C@H]1CSSC[C@H](NC(=O)[C@@H]4CCCN4C(=O)[C@H](CC(=O)O)NC(=O)[C@H](C)NC3=O)C(=O)N[C@@H](C)C(=O)N[C@@H](CCCCN)C(=O)N[C@@H](CCC(=O)O)C(=O)N[C@@H]([C@@H](C)O)C(=O)NCC(=O)N[C@@H](CSSC[C@@H](C(N)=O)NC(=O)[C@H](CCCNC(=N)N)NC(=O)[C@H](CC(N)=O)NC1=O)C(=O)N1CCC[C@H]1C(=O)N[C@@H](Cc1ccc(O)cc1)C(=O)NCC(=O)N[C@@H](CCCCN)C(=O)N2 | – | DA rat, pristane-induced arthritis, serum | subcutaneous, 0.1 mg/kg once weekly, end of 21-day trial | – | globulin | 1.16 g/dL
CC[C@H](C)C(=O)N1CCC(NC(=O)Nc2ccc(OC(F)(F)F)c(F)c2)CC1 | – | human, plasma | oral, 24 mg, single dose, healthy volunteers | – | Tmax | 75 min
NS(=O)(=O)NCC(F)(F)c1ccccc1F | rotarod impairment | mouse | intraperitoneal | – | TD50 | 217 ± 7 mg/kg

Repeated from above:
SMILES | assay | system | setting | scale | measurement | result
CC[C@H](C)[C@@H]1NC(=O)[C@H](CCCNC(=N)N)NC(=O)[C@H](CC(=O)O)NC(=O)[C@H](CC(C)C)NC(=O)[C@H](CCCCN)NC(=O)[C@H](CC(C)C)NC(=O)CNC(=O)[C@H](Cc2ccccc2)NC(=O)[C@@H](NC(=O)CNC(=O)[C@H](CCCCN)NC(=O)[C@H](CO)NC(=O)[C@H](CC(C)C)NC(=O)CNC(=O)[C@H](CCCCN)NC(=O)[C@H](CCCCN)NC(=O)[C@H](CCC(N)=O)NC(=O)[C@H](C)NC(=O)CNC(=O)[C@H](CCCCN)NC(=O)[C@H](Cc2ccc(O)cc2)NC(=O)[C@H](CCCCN)NC(=O)[C@H](CCCNC(=N)N)NC(=O)[C@H](C)NC(=O)[C@H](CCC(N)=O)NC(=O)[C@@H]2CCCN2C(=O)[C@H](Cc2c[nH]cn2)NC(=O)[C@H](CCC(=O)O)NC(=O)[C@H](CCC(N)=O)NC(=O)[C@@H](N)CC(C)C)CSSC[C@@H](C(=O)O)NC(=O)CNC(=O)[C@H](CC(C)C)NC(=O)CNC(=O)[C@H](CO)NC(=O)[C@H](CCSC)NC(=O)[C@H](CO)NC(=O)CNC1=O | – | FVB/nJ male mice, 3 weeks old | dose not given | baseline: untreated | body weight | no effect
C/C=C/C=C/C/C=C/CCCCCCCc1cccc(O)c1O | – | female Kunming mice, tumour-bearing, liver | intravenous, 10 mg/kg, 0.083 h | – | tissue concentration | 47200 ± 3690 ng/g
